Assay results pooled from the literature.
Each line is one published result; not all experiments were run side by side. Numbers after ± are the reported error.
Cell line: HepG2

SMILES	effect on	action	method	time	setting	IC50
CC(=O)[O-].O.O.O.O.[Co+2].[O-]c1ccc(Br)cc1C=NCCN1CCOCC1	cell viability	–	MTT	72 h	–	23.2 µg/mL
Cc1ccc(C(c2c[nH]c3ccccc23)c2c[nH]c3ccccc23)cc1	cell growth or viability	–	MTT	24 h	–	7.18 µM
CCOC(=O)c1ccc(NC(=O)C(C#N)=C2C(=O)c3ccccc3C2=O)cc1	cell growth or viability	–	MTT	24 h	–	28.1 µM
COc1cc(-c2cc(=O)c3c(O)cc(OC4OC(COC5OC(C)C(O)C(O)C5O)C(O)C(O)C4O)cc3o2)ccc1O (stereo not drawn)	cell growth or viability	–	resazurin	72 h	–	> 100 µM
COc1cc(/C=C/C(=O)C(Cc2ccc(O)c(OC)c2)C(=O)/C=C/c2ccc(O)c(OC)c2)ccc1O	cell growth or viability	–	MTT	48 h	–	6.74 µM
Nc1nc(-c2ccc(NC(=O)c3cc(Cl)cc(Cl)c3)cc2)c[nH]1	cell growth or viability	–	XTT	24 h	–	62.8 µM
Clc1cc2nc(-c3cc4cc5c(cc4nc3Cl)OCO5)[nH]c2cc1Cl	cell growth or viability	–	MTT	48 h	–	> 100 µM
C[C@@H]1O[C@@H](O[C@H]2[C@H](O[C@H]3CC[C@@]4(C)C(CC[C@]5(C)C4CC=C4C6CC(C)(C)CC[C@]6(C(=O)O[C@@H]6O[C@H](CO)[C@@H](O)[C@H](O)[C@H]6O)CC[C@]45C)[C@]3(C)CO)OC[C@H](O)[C@@H]2O)[C@H](O)[C@H](O[C@@H]2OC[C@@H](O)[C@H](O)[C@H]2O)[C@H]1O (stereo partly drawn)	cell growth or viability	–	CCK-8	24 h	–	> 50 µM
CCC1=C(CC)C2=[N+]3C1=Cc1c(CC)c(CC)c4[n]1[Ir-3]31([n+]3ccccc3)([n+]3ccccc3)[n]3c(c(CC)c(CC)c3=CC3=[N+]1C(=C4)C(CC)=C3CC)=C2.Cl	cell growth or viability	–	MTT	72 h	–	1.32 µM
O=C(/C=C(O)/C=C/c1cccs1)/C=C/c1cccs1	cell growth or viability	–	MTT	72 h	–	> 75 µM
N#Cc1cc(C(=O)c2ccc3ccccc3c2O)c[nH]c1=O	cell growth or viability	–	MTT	48 h	–	34.6 µM
Clc1nc2ccccc2cc1-c1nc2ccccc2[nH]1	cell growth or viability	–	MTT	48 h	–	> 100 µM
COc1ccc(C(c2c[nH]c3ccc(Br)cc23)c2c[nH]c3ccc(Br)cc23)cc1	cell growth or viability	–	MTT	24 h	–	4.23 µM
CCNc1cc2c(cc1C)C1(c3cc(C)c(NCC)cc3O2)c2ccccc2C(=O)N1N=Cc1c[c-]c(-c2ccccn2)cc1.Cc1c(C)c(-c2ccc(-c3ccccc3)cc2)[c-](C)c1C.[Cl-].[Ir+3]	cell growth	–	MTT	24 h	–	19.4 ± 7.5 µM
COc1ccc2nc(Cl)c(-c3nc4cc(F)ccc4[nH]3)cc2c1	cell growth or viability	–	MTT	48 h	–	> 100 µM
O=C(NNc1nc(-c2ccccc2)cs1)c1cc2c(ccc3ccccc32)oc1=O	cell growth or viability	–	SRB	72 h	–	73.5 µM
Nc1ccccc1NC(=O)c1ccc(Nc2nccc(-c3cn(C4CCCCC4)nn3)n2)cc1	cell growth or viability	–	SRB	72 h	–	3.3 µM
COC(=O)C(NC(=O)CNC(=O)CNC(=O)COc1ccc2c(C)cc(=O)oc2c1)c1ccccc1 (stereo in doubt)	cell growth or viability	–	MTT	–	–	221 µM
Oc1ccc2c(c1)[O][Pt-2]1([Cl])[N+](=C2)c2ccccc2[NH+]1c1ccccc1 (stereo not drawn)	cell viability	–	MTT	48 h	–	63.9 ± 6.44 µM
COc1ccc2c(c1)/C(=N/NC(N)=S)C(=O)N2CCn1cnc2c(N)ncnc21	cell growth or viability	–	SRB	72 h	–	29.5 µM

SMILES	effect on	action	method	time	setting	IC50
C=C1C(=O)[C@@]23CC[C@@H]4[C@](C)(COC(C)=O)CCC[C@@]4(COC(C)=O)[C@@H]2[C@@H](O)C[C@@H]1C3	cell growth or viability	–	MTT	–	–	5.5 µM
C[C@]12CC[C@@H]3c4ccc(O)cc4CC[C@H]3[C@@H]1CC[C@@]2(O)c1cn(CC(=O)c2ccc(F)cc2)nn1	cell growth or viability	–	resazurin	72 h	–	28.1 µM
C=CCc1cc(OC)c(OC(C)=O)c(OC)c1	–	–	MTT	24 h	–	> 50 µM
CC(C)(C)c1cc2c(O)c(c1)Cc1cc(C(C)(C)C)cc(c1OCC(=O)NCc1ccncc1)Cc1cc(C(C)(C)C)cc(c1O)Cc1cc(C(C)(C)C)cc(c1OCC(=O)NCc1ccncc1)COC2	cell growth or viability	–	MTT	72 h	–	17.6 µM
N#Cc1c(F)c(Cl)c2nc(SCC3CCCO3)nc(N)c2c1F (stereo not drawn)	cell growth or viability	–	MTT	96 h	–	26.1 µM
C=C1C(=O)[C@@]23CC[C@@H]4[C@](C)(COC(C)=O)CCC[C@@]4(CO)[C@@H]2[C@@H](O)C[C@@H]1C3	cell growth or viability	–	MTT	–	–	6 µM
Cc1cc(C#N)cc(C)c1Oc1cc(Nc2ccc(C#N)cc2)nc2cnccc12	–	–	–	48 h	–	> 128 µM
N#Cc1cccc(-c2ccc(=O)n(Cc3cccc(-c4ncc(OCC5CCN(CCC(=O)Nc6cccc7c6C(=O)N(C6CCC(=O)NC6=O)C7=O)CC5)cn4)c3)n2)c1 (stereo not drawn)	cell growth or viability	–	CCK-8	72 h	–	> 100 µM
C=C(CO)C(=O)O[C@H]1CC(=C)[C@@H]2C[C@H](O)[C@](O)(CCl)[C@@H]2[C@H]2OC(=O)C(=C)C12 (stereo partly drawn)	cell growth or viability	–	–	–	–	5 µg/mL
CC(=O)OC[C@H]1O[C@@H](n2nc(-c3cc4ccccc4[nH]3)n(-c3ccccc3)c2=S)[C@H](OC(C)=O)[C@@H](OC(C)=O)[C@@H]1OC(C)=O	cell growth or viability	–	MTT	–	–	≥ 50 µM
O=C(NNc1nc(-c2ccccc2)cs1)c1cc2ccc(O)cc2oc1=O	cell growth or viability	–	SRB	72 h	–	2.6 µM
CCN(CC)c1ccc2c(c1)[O][Pt-2]1([Cl])[N+](=C2)CC[NH+]1c1ccccc1 (stereo not drawn)	cell viability	–	MTT	48 h	–	27.1 ± 3.53 µM
COc1ccc(-c2nnc(-c3ccccn3)[nH]2)cc1OC	cell growth or viability	–	MTT	24 h	–	> 100 µM
O=C(Cc1ccccc1)NC(=S)Nc1nccs1	cell growth or viability	–	MTT	48 h	–	60.9 µM
Cc1ccc2nc(Cl)c(-c3nc4cc(C)c(C)cc4[nH]3)cc2c1	cell growth or viability	–	MTT	48 h	–	> 100 µM
C/C(=N\NC(N)=S)c1c(O)c2ccccc2oc1=O	cell growth or viability	–	MTT	48 h	–	61.4 µM
Cc1cc(C=O)cc(C)c1Oc1cc(Nc2ccc(C#N)cn2)nc2cnccc12	–	–	–	48 h	–	23.8 ± 2.5 µM
N#Cc1cccc(-c2ccc(=O)n(Cc3cccc(-c4ncc(OCC5CCN(CC(=O)NCCOCCNc6cccc7c6C(=O)N(C6CCC(=O)NC6=O)C7=O)CC5)cn4)c3)n2)c1 (stereo not drawn)	cell growth or viability	–	CCK-8	72 h	–	10.7 µM
COc1cc(OC)c(-c2coc3c4c(c(OC)cc3c2=O)OC(C)(C)C=C4)cc1OC	cell growth or viability	–	MTT	72 h	–	8.05 µM
Nc1ncnc2c1C(c1cccs1)C1=C(CCCC1=O)O2 (stereo not drawn)	cell growth or viability	–	MTT	72 h	–	39.7 µM

SMILES	effect on	action	method	time	setting	IC50
C/C(=N\N=c1/[nH]c(-c2ccccc2)cs1)c1c(O)c2ccccc2oc1=O	cell growth or viability	–	MTT	48 h	–	47.6 µM
Cc1c(C(=O)NNC(=O)Nc2ccc([N+](=O)[O-])cc2)nnn1Cc1nc2ccccc2[nH]1	cell viability	–	MTT	48 h	–	21 to 50 µM
C=CC(OC(C)=O)c1cc(OC)c(OC(C)=O)c(OC)c1 (stereo not drawn)	–	–	MTT	24 h	–	> 50 µM
[CH3][Pd-2]([Cl])([N+](=Cc1ccc[nH]1)Cc1ccccc1)[N+](=Cc1ccc[nH]1)Cc1ccccc1	cell growth or viability	–	MTT	24 h	–	> 100 µg/mL
COc1ccc(/C=C/C(=O)/C=C/c2cn(-c3ccccc3)nc2C(=O)O)cc1OC	cell growth	–	–	72 h	–	> 25 µM
N#Cc1c(F)c(F)c2nc(SCC3CCCO3)nc(N)c2c1F (stereo not drawn)	cell growth or viability	–	MTT	96 h	–	24.1 µM
N#Cc1cccc(-c2ccc(=O)n(Cc3cccc(-c4ncc(OCC5CCN(CCCCCC(=O)Nc6cccc7c6C(=O)N(C6CCC(=O)NC6=O)C7=O)CC5)cn4)c3)n2)c1 (stereo not drawn)	cell growth or viability	–	CCK-8	72 h	–	1.84 µM
O=C(/C=C/c1ccc(O)cc1)OCCCC[P+](c1ccccc1)(c1ccccc1)c1ccccc1	cell growth or viability	–	SRB	24 h	–	26.8 µM
N#Cc1c(F)c(Cl)c2nc(SCc3ccc4ccccc4c3)nc(N)c2c1F	cell growth or viability	–	MTT	96 h	–	7.27 µM
Clc1ccc2[nH]c(-c3cc4ccccc4nc3Cl)nc2c1	cell growth or viability	–	MTT	48 h	–	11.5 µM
O=C1Nc2ccccc2/C1=N/c1ccccc1C(=O)Nc1ccccc1	cell growth or viability	–	MTT	24 h	–	16 µM
C[C@@H]1O[C@@H](O[C@H]2[C@H](O[C@H]3CC[C@@]4(C)[C@@H](CC[C@]5(C)[C@@H]4CC=C4[C@@H]6CC(C)(C)CC[C@]6(C(=O)O)CC[C@]45C)[C@]3(C)CO)OC[C@H](O)[C@@H]2O)[C@H](O)[C@H](O)[C@H]1O	NF-κB activity	inhibitor	luciferase	–	TNF-stimulated	0.75 µM
CS/C(=N\N=C(/C)c1ccc(S(=O)(=O)N2CCC(C)CC2)cc1)N1CCCCC1	cell growth or viability	–	MTT	–	–	33.9 µM
F[P-](F)(F)(F)(F)F.O=C(CCC(=O)c1ccccc1)NCCN(CC(=O)Nc1ccc(C#CCN(Cc2ccccn2)Cc2ccccn2)cc1)C(=O)CCc1cn(C[c-]2cccc2)nn1.[C-]#[O+].[C-]#[O+].[C-]#[O+].[Fe+2].[Re+].c1cc[cH-]c1	cell growth or viability	–	resazurin	48 h	–	> 100 µM
CC(=O)N[C@@H]1[C@@H](OC(C)=O)[C@H](OC(C)=O)[C@@H](COC(C)=O)O[C@H]1n1nc(-c2cc3ccccc3[nH]2)n(-c2ccccc2)c1=S	cell growth or viability	–	MTT	–	–	6.68 µM
O=C1C(Cl)=C(Cl)C(=O)c2c(O)ccc(O)c21	cell growth or viability	–	MTT	–	–	8.07 µM
CC(C)(O)[C@@H]1CC[C@](C)([C@H]2CC[C@]3(C)[C@@H]2CC[C@@H]2[C@@]4(C)CCC(=O)C(C)(C)[C@@H]4CC[C@]23C)O1	cell growth or viability	–	SRB	–	–	> 100 µM
CCOc1cc(/C=C/C(=O)/C=C/c2cn(-c3ccccc3)nc2C(=O)O)ccc1O	cell growth	–	–	72 h	–	> 25 µM
CSC(=S)N/N=C(\C)c1ccc(S(=O)(=O)N2CCC(C)CC2)cc1	cell growth or viability	–	MTT	–	–	4.82 µM
CCOc1cccc(C(=O)Nc2ccc(-c3nc4ccccc4[nH]3)cc2)c1	cell growth or viability	–	MTT	–	–	12.8 µM

Some of these lines once more:
SMILES	effect on	action	method	time	setting	IC50
COc1ccc(-c2nnc(-c3ccccn3)[nH]2)cc1OC	cell growth or viability	–	MTT	24 h	–	> 100 µM
C=CCc1cc(OC)c(OC(C)=O)c(OC)c1	–	–	MTT	24 h	–	> 50 µM
CC(=O)N[C@@H]1[C@@H](OC(C)=O)[C@H](OC(C)=O)[C@@H](COC(C)=O)O[C@H]1n1nc(-c2cc3ccccc3[nH]2)n(-c2ccccc2)c1=S	cell growth or viability	–	MTT	–	–	6.68 µM
COc1ccc2nc(Cl)c(-c3nc4cc(F)ccc4[nH]3)cc2c1	cell growth or viability	–	MTT	48 h	–	> 100 µM
COc1ccc2c(c1)/C(=N/NC(N)=S)C(=O)N2CCn1cnc2c(N)ncnc21	cell growth or viability	–	SRB	72 h	–	29.5 µM
N#Cc1c(F)c(Cl)c2nc(SCC3CCCO3)nc(N)c2c1F (stereo not drawn)	cell growth or viability	–	MTT	96 h	–	26.1 µM
